Measured values from different studies.
Each line is one published result; not all experiments were run side by side.

CC(C)C[C@@H]1NC(=O)[C@@H](Cc2ccccc2)NC(=O)[C@H](CCN)NC(=O)[C@@H](NC(=O)[C@H](CCN)NC(=O)[C@@H](N)[C@@H](C)O)CCNC(=O)[C@H]([C@@H](C)O)NC(=O)[C@H](CCN)NC(=O)[C@H](CCN)NC1=O — MIC (Escherichia coli; rifampicin MIC with synergist, checkerboard; 552100; concentration not given, together with: rifampicin): 0.09 µg/mL
CC1(C)SC2C(NC(=O)C(NC(=O)C3=C(O)C4(CC4)NC3=O)c3ccccc3)C(=O)N2C1C(=O)O (stereo not drawn) — MIC (Escherichia coli; broth microdilution; ATCC 25922 wild type; together with: clavulanic acid 6 µg/mL): 25 µg/mL
O=c1c(O)c(-c2ccc(O)cc2)oc2cc(O[C@@H]3O[C@H](CO)[C@@H](O)[C@H](O)[C@H]3O)cc(O)c12 — MIC (Streptococcus mutans; ATCC 700610): 100 µg/mL
CCCCCCCCCC(=O)N[C@@H](Cc1c[nH]c2ccccc12)C(=O)N[C@H](CC(N)=O)C(=O)N[C@@H](CC(=O)O)C(=O)N[C@@H]1C(=O)NCC(=O)N[C@@H](CCCN)C(=O)N[C@@H](CC(=O)O)C(=O)N[C@H](C)C(=O)N[C@@H](CC(=O)O)C(=O)NCC(=O)N[C@H](CO)C(=O)N[C@@H]([C@H](C)CC(=O)O)C(=O)N[C@@H](CC(=O)c2ccccc2N)C(=O)O[C@@H]1C — MIC (Staphylococcus aureus; SH1000; no lipid): 1 µg/mL
CC1(C)SC2C(NC(=O)C(NC(=O)C3=C(O)C4CCCN4C3=O)c3ccccc3)C(=O)N2C1C(=O)O (stereo not drawn) — MIC (Escherichia coli; broth microdilution; BW25113 wild type; 18 h): 50 µg/mL
CNC(C)C1CCC(N)C(OC2C(N)CC(N)C(OC3OCC(C)(O)C(NC)C3O)C2O)O1 (stereo not drawn) — MIC (Pseudomonas aeruginosa; clinical isolate RKI-No_612/16): 8 µg/mL
CC(=O)NC[C@H]1CN(c2ccc(N3CCOCC3)c(F)c2)C(=O)O1 — MIC (Staphylococcus aureus; MRSA-11): 2 µg/mL
N=C(N)c1ccc(OCCCCCOc2ccc(C(=N)N)cc2)cc1 — MIC (Escherichia coli; mcr-1 polymyxin-resistant; 20 h, compound alone): > 200 µg/mL
Cc1cc(-c2cn[nH]c2-c2cccc(OCc3cccc(C#N)c3)c2)cc(C)n1 — MIC (Akkermansia muciniphila; broth microdilution; BAA-835; anaerobic conditions): > 128 µg/mL
CC1(C)S[C@@H]2[C@H](NC(=O)[C@H](N)c3ccccc3)C(=O)N2[C@H]1C(=O)O — MIC (Pseudomonas aeruginosa; broth microdilution; clinical isolate RKI-No 483/15-1): > 16 µg/mL
N=C(N)c1ccc(OCc2ccc(Br)cc2COc2ccc(C(=N)N)cc2)cc1 — MIC (Escherichia coli; W3110; in combination, checkerboard, together with: rifampicin): 6.25 µg/mL
CC(=O)N1CCN(c2ccc(OCC3COC(Cn4ccnc4)(c4ccc(Cl)cc4Cl)O3)cc2)CC1 (stereo not drawn) — MIC (Candida; twelve fungal strains): 4.76 µM

Excerpt of the above:
CC1(C)S[C@@H]2[C@H](NC(=O)[C@H](N)c3ccccc3)C(=O)N2[C@H]1C(=O)O — MIC (Pseudomonas aeruginosa; broth microdilution; clinical isolate RKI-No 483/15-1): > 16 µg/mL
